Results pooled from the literature.
± gives the spread as reported.

SMILES | assay | test system | conditions | Cmax
C[C@H]1[C@H]2N(C(=O)CN(C)N2C(=O)NCc2ccccc2)[C@@H](Cc2ccc(OP(=O)(O)O)cc2)C(=O)N1Cc1cccc2cccnc12 | – | patients, plasma | intravenous infusion, 280 mg/m2 over 4 h, mean | 1950 ng/mL
CCc1nc2c(C)cc(N3CCN(CC(=O)N4CC(O)C4)CC3)cn2c1N(C)c1nc(-c2ccc(F)cc2)c(C#N)s1 | – | healthy volunteers, fed, plasma | oral, 600 mg single dose, day 1, tablet | 7500 ng/mL
CNC(=O)c1cc(Oc2ccc(NC(=O)Nc3ccc(Cl)c(C(F)(F)F)c3)cc2)cc[n+]1[O-] | – | patients, plasma | oral, 400 mg twice daily, steady state, geometric mean, added: rifampin 600 mg oral | 1460 ng/mL
O=C([O-])CCCCCCCNC(=O)c1ccccc1O.[Na+] | – | healthy postmenopausal women | oral, 300 mg, geometric mean, added: oral contraceptive plus oral semaglutide | 2020 ng/mL
CC[C@H](Nc1ncnc2[nH]cnc12)c1oc2ccccc2c(=O)c1-c1cccc(F)c1 | – | patients, Cohort-2, plasma | oral, 600 mg twice daily, added: romidepsin 12 mg/m2 | 2150 ± 749 ng/mL
COC(=O)N[C@H](C(=O)N1CCC[C@H]1c1ncc(-c2cc(F)c3c(c2)O[C@@H](c2cnc(C4CC4)s2)n2c-3cc3cc(-c4cnc([C@@H]5CCCN5C(=O)[C@@H](NC(=O)OC)C(C)C)[nH]4)ccc32)[nH]1)C(C)C | – | healthy adults, plasma | oral, 180 mg once daily, day 6, fasted, alone, geometric mean | 320 ng/mL
O=C(c1ccccc1)c1ccc2n1CCC2C(=O)O (centres unmarked) | – | New Zealand White rabbit, male, plasma | oral, 10 mg/kg drug equivalent | 10900 ± 480 ng/mL
N[C@@H]1c2ccccc2OC12CCN(c1cnc3c(N4CCCc5ncccc54)n[nH]c3n1)CC2 | – | patients advanced solid tumours, plasma | oral, 150 mg once daily, cycle 1 day 15 | 949 ng/mL
CCc1nc(C(N)=O)c(Nc2ccc(N3CCC(N4CCN(C)CC4)CC3)c(OC)c2)nc1NC1CCOCC1 | – | patients, plasma | oral, 120 mg once daily, cycle 1 day 15, median | 282 ng/mL
C[C@H](NC(=O)/C(C#N)=C/c1cccc(Br)n1)c1ccccc1 | LC-MS/MS | patients, plasma | oral, 1 mg/kg, cycle 1 day 8 | 11.7 ng/mL
CCNCc1cc(Nc2ccnc3cc(Cl)ccc23)ccc1O | – | healthy volunteers, plasma | oral, dose not given, fixed-dose combination | 748 ng/mL
CC[C@H](C)CCCCC(=O)N[C@@H](CCN)C(=O)N[C@H](C(=O)N[C@@H](CCN)C(=O)N[C@H]1CCNC(=O)[C@H]([C@@H](C)O)NC(=O)[C@H](CCN)NC(=O)[C@H](CCN)NC(=O)[C@H](CC(C)C)NC(=O)[C@@H](Cc2ccccc2)NC(=O)[C@H](CCN)NC1=O)[C@@H](C)O | – | ESKD on long-term intermittent haemodialysis, plasma | intravenous infusion, 0.75 mg/kg, geometric least squares mean | 2780 ng/mL
O=C(Nc1cnccc1Cl)N1CCN(Cc2ccc3c(c2)OC(F)(F)O3)CC1 | – | healthy young men, plasma | oral, 10 mg once daily, day 1 | 63.6 ng/mL
N[C@@H](CC(=O)N1CCc2c(nc(C(F)(F)F)nc2C(F)(F)F)C1)CN1CC(F)(F)CCC1=O | – | healthy Korean adults, fasted, plasma | oral, 50 mg single dose, separate tablets, added: enavogliflozin 0.3 mg | 103 ± 31.5 ng/mL
C=CC(=O)NC1CCN(c2ncc3ncnc(Nc4ccc(Oc5ccc6c(c5)ncn6C)c(C)c4)c3n2)CC1 | item: total radioactivity | healthy male volunteers, plasma | oral solution, 60 mg, 14C-labelled, geometric mean | 1450 nM
CC(=O)Nc1ccc(C[C@H](NC(=O)[C@H](CO)NC(=O)[C@@H](Cc2cccnc2)NC(=O)[C@@H](Cc2ccc(Cl)cc2)NC(=O)[C@@H](Cc2ccc3ccccc3c2)NC(C)=O)C(=O)N[C@H](Cc2ccc(NC(C)=O)cc2)C(=O)N[C@@H](CC(C)C)C(=O)N[C@@H](CCCCNC(C)C)C(=O)N2CCC[C@H]2C(=O)N[C@H](C)C(N)=O)cc1 | – | healthy men, fasted, serum | oral, 40 mg single dose | 17.1 ± 12.7 ng/mL
O=C(O)c1cc(O)c(O)c(O)c1 | – | broiler chickens, serum | oral, in feed, 2000 mg/kg feed, 24 h, corn diet with tannins | 330 ± 100 nM
CNC(=O)c1ccc(-c2cnc3ncc(Cc4ccc5ncccc5c4)n3n2)cc1F | – | Japanese patients, plasma | oral, 400 mg twice daily, cycle 1 day 1, fasting | 4020 ng/mL
O=C(c1cccnc1-c1ccncc1)N1CCC(O)(Cc2ccccc2)CC1 | – | healthy Japanese adults, plasma | oral, 100 mg twice daily, day 1 | 255 ng/mL

SMILES | assay | test system | conditions | Cmax
C[C@@H](N)C1CCN(S(=O)(=O)c2cccc3cnccc23)CC1 | – | healthy volunteers, fasted, plasma | oral, 75 mg | 16.9 ng/mL
CC(=O)N[C@H]1CC[C@H](NC(=O)CN2CCN(c3nncc(-c4ccc(C)cc4)n3)CC2)CC1 | – | women, plasma | oral, 100 mg single dose, study | 1490 ng/mL
CCNC(=O)[C@@H]1CCCN1C(=O)[C@H](CCCNC(=N)N)NC(=O)[C@H](CC(C)C)NC(=O)[C@@H](CC(C)C)NC(=O)[C@H](Cc1ccc(O)cc1)NC(=O)[C@H](CO)NC(=O)[C@H](Cc1c[nH]c2ccccc12)NC(=O)[C@H](Cc1c[nH]cn1)NC(=O)[C@@H]1CCC(=O)N1 | – | healthy female volunteers | oral, 1 mg single dose | 1.9 ± 1.3 ng/mL
COC(=O)c1ccc2c(c1)NC(=O)/C2=C(\Nc1ccc(N(C)C(=O)CN2CCN(C)CC2)cc1)c1ccccc1 | – | healthy volunteers, plasma | oral, 150 mg single dose, alone | 21.5 ng/mL
CS(=O)(=O)c1ccc([C@@H](O)[C@@H](CF)NC(=O)C(Cl)Cl)cc1 | – | chicken (Arbor Acres), plasma | oral, 20 mg/kg, added: quercetin 20 mg/kg pretreatment | 10000 ± 1230 ng/mL
Cc1ccc(C(=O)NC2CC2)cc1-n1ncc(C(=O)c2cccc(C#N)c2)c1N | – | healthy volunteers | oral, 10 mg single dose, mean observed | 118 ng/mL
OC[C@H]1O[C@@H](c2ccc(F)c(Cc3cc4ccccc4s3)c2)[C@H](O)[C@@H](O)[C@@H]1O | – | Japanese type 2 diabetes patients, plasma | oral, 100 mg/day, day 14 | 2680 ± 346 ng/mL
N[C@@H](Cc1ccc(O)c(O)c1)C(=O)O | – | Parkinson's disease patients, plasma | oral, high carbidopa AUC subgroup (11.5 µmol·h/L), median | 11700 nM
CCCCCCCOc1ccc(CCC(N)(CO)CO)cc1C(F)(F)F.Cl | – | healthy men, plasma | oral, 0.125 mg, day 21 | 0.879 ng/mL
CCNC(=O)[C@@H]1CCCN1C(=O)[C@H](CCCNC(=N)N)NC(=O)[C@H](CC(C)C)NC(=O)[C@@H](CC(C)C)NC(=O)[C@H](Cc1ccc(O)cc1)NC(=O)[C@H](CO)NC(=O)[C@H](Cc1c[nH]c2ccccc12)NC(=O)[C@H](Cc1c[nH]cn1)NC(=O)[C@@H]1CCC(=O)N1 | – | healthy premenopausal women, plasma | oral, 4 mg twice daily, day 1 | 4.1 ± 5.1 ng/mL
C[C@@H]1CCO[C@H]2Cn3cc(C(=O)NCc4ccc(F)cc4F)c(=O)c(O)c3C(=O)N12 | population PK, post-hoc | children, 25 to <30 kg, plasma | oral, 25 mg film-coated tablet, steady state, geometric mean | 3020 ng/mL
CCCCC1=NC2(CCCC2)C(=O)N1Cc1ccc(-c2ccccc2S(=O)(=O)Nc2noc(C)c2C)c(COCC)c1 | – | healthy adult volunteers, plasma | oral, 50 mg, single dose, fasted, crushed tablet | 1390 ng/mL
Cc1nn(C)cc1S(=O)(=O)NC(=O)c1ccc(-n2ccc(OCC(C)(C)C(F)(F)F)n2)nc1N1C[C@@H](C)CC1(C)C | – | human, plasma | oral, standard ETI dose | 3900 ng/mL
C=CC(=O)NC1CCN(c2ncc3ncnc(Nc4ccc(Oc5ccc6c(c5)ncn6C)c(C)c4)c3n2)CC1 | – | healthy men | oral, 60 mg single dose | 914 nM
C[C@@](Cc1ccc(O)c(O)c1)(NN)C(=O)O | – | Parkinson's disease patients, plasma | oral, low levodopa Cmax subgroup (<9 µmol/L), median | 200 nM
C=C(F)C(=O)N1CCN(c2nc(OC[C@@H]3CCCN3C)nc3c2CCN(c2cccc4cccc(Cl)c24)C3)C[C@@H]1CC#N | – | healthy volunteers, plasma | 600 mg | 551 ng/mL
CCCCCCCCCCCCCCCC(=O)N[C@@H](CCC(=O)NCCCC[C@@H]1NC(=O)[C@H]([C@@H](C)CC)NC(=O)[C@@H](NC(=O)[C@@H]2CCCN2C(=O)[C@H](Cc2ccccc2)NC(=O)[C@H](Cc2c[nH]cn2)NC(=O)[C@@H](NC(=O)[C@H](CC(=O)O)NC(=O)CC(C)C)[C@@H](C)O)CSSC[C@@H](C(=O)N[C@@H](CCCCN)C(N)=O)NC(=O)CNC(=O)[C@H](CCCCN)NC(=O)[C@H](CO)NC(=O)[C@H](CCCNC(=N)N)NC(=O)[C@@H]2CCCN2C(=O)[C@H](CCC(=O)O)NC(=O)[C@H](Cc2ccccc2)NC1=O)C(=O)O | – | healthy volunteers, plasma | subcutaneous, 60 mg single, lyophilised formulation | 776 ± 842 ng/mL
COc1nnc2ccc(N3CCC(c4ccc(OCCN5CCN(C)C(=O)[C@H]5C)cc4)CC3)nn12 | – | patients, plasma | oral, 15 mg twice daily, single dose, monotherapy | 114 nM
COc1c(O)cc(C(=O)O)cc1O | LC-MS/MS | male Ross broilers, serum | oral, 0.49 mg/kg gallic acid | 140 ± 90 nM

For quick reference, copied from above:
SMILES | assay | test system | conditions | Cmax
CCc1nc2c(C)cc(N3CCN(CC(=O)N4CC(O)C4)CC3)cn2c1N(C)c1nc(-c2ccc(F)cc2)c(C#N)s1 | – | healthy volunteers, fed, plasma | oral, 600 mg single dose, day 1, tablet | 7500 ng/mL
C[C@H](NC(=O)/C(C#N)=C/c1cccc(Br)n1)c1ccccc1 | LC-MS/MS | patients, plasma | oral, 1 mg/kg, cycle 1 day 8 | 11.7 ng/mL
